Experimental data from different studies.
Every numbered part comes from another study and shows a few of its results, in no order. Positions count from the first letter of the parent shown.

Sample 1
Target: RNA binding protein fox-1 homolog 2, RRM domain, GST-SBP tag (RBFOX2, Homo sapiens, UniProt O43251-10, residues 100-194)
Technique: RNA Bind-n-Seq
Form: RNA
Medium: in vitro
Concentration: 365 nM
Notes: natural RNA segment, single round, ends assumed
Reference: no-protein control
Direction: higher = stronger binding
Residues (chain): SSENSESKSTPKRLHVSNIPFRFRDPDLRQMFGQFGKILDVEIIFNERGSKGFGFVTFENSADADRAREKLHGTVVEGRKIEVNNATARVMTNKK
Strand	RBNS enrichment (R)
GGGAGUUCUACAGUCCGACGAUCUGAGAUGAGGAUAUGUUUGAGAUGCACAGUUGGAUAAUGUGGGAAAAUGACAUCUAAGCUUUACCUGGUCACCAUGUGAUGUGAUCAGAUGCUUGAAAUUUAACACUUUUUGGAAUUCUCGGGUGCCAA	0.561
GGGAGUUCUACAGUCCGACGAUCGCCGGCAUGGUAAAAGGAAGCUGUCUCCCUUCUGACAUUUCCUAGGAAGCUAGGAAAAGGAAAGUGAAGGAAUGGUCUAAAGAAAUGACCAUUCACACUGAUUUUGUCUGUGGAAUUCUCGGGUGCCAA	0.374
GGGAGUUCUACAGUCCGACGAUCGCUCAGACACCAUUACUUUUGUGAACGCUUCUGCCACAUCUUGUCUUCCCCAAAAUUGAUCACUCCGCCUUCUCCUGGGCUCCCGUAGCACACUAUAACAUCUGCUGGAGUGGAAUUCUCGGGUGCCAA	0.489
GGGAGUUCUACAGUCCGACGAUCGUUUAACAGUUCCUUUACAUGUGUAGUAUUUGAGGAAAAAAAUCAAUAAACAGUUGAUCUCGUGCAUUGGAAGUCCCUUCGCCAUCAUCUGUCUUCAUGCCCACUUCACUUGGAAUUCUCGGGUGCCAA	0.777
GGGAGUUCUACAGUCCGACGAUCACUCUCUUAUUUGUGCAUUCGGUUUGGUUUCUGUAGUUUUAAUUUUUAAUAAAGUUGAAUAAAAUAUAAACGCUGGUAUCUGUUGGCUUCCAUUCCGCUUUAGUAAGUAAUGGAAUUCUCGGGUGCCAA	1.36
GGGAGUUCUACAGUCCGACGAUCAUACAAAUGCAAAAUGCCUUAUACUGAAGCAGUUUUACAUGAAGUUUUAAGAUUCUGUAAUAUAGUUCCACUGGGAAUUUUCCAUGCAACUUCGGAAGAUGCAGUUGUACUGGAAUUCUCGGGUGCCAA	0.381
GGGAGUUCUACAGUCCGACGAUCGAAGAUGCAAGGACCUCUCCUCAAGAGACUGUUGCCUGCCUGAAGCUUCUGUUCAGGCUCAUGCCAAGCUUGACCGGAUUGGGAGAACUGGACUCAGUUUAACCUGUAUCUGGAAUUCUCGGGUGCCAA	0.369
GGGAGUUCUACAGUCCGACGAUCUAGAUAAUAACUGUCUUCUGGACUUGGUCUUGAAGUCUGUACAGAUUCAGCCUCAGUAGUAGCGAACUGCACUGCUGUUUGGUUUGGAGUACAAAUUAGACUUAUAGUCCUGGAAUUCUCGGGUGCCAA	0.306
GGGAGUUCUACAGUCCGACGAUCUGGCUUGAAGAGUAACCAUCAGAGCUGAAUCAUCCAAGUAAGAACAAGUACCAUUGUUGAUUGAUAAGUAGAGAUACAUUUUUUAUGAUGUUCAUCACAGUGUGGUAAGGUGGAAUUCUCGGGUGCCAA	0.296
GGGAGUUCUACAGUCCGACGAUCAAAGUUCCAUUACAGCUUACUGUGAAAGAAUUGACAAGACUGGCCUCAGACAAGCUAAUCAUGGUGCGACUCUCUCCCUUCCUCAUCCACCUCUUUGGGGACAAGAGGAUUGGAAUUCUCGGGUGCCAA	0.245
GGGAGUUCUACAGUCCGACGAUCUGUGACCGUUUCGAUGUUGAUAAGAAGGUGAAUUUACUGUAGUGUUACCACCUUCUCCCCACUUGAUGGUUCUUGACUUUGUAAAAAUUUAAAUAAAUGAAUGUCUAUACUGGAAUUCUCGGGUGCCAA	0.441
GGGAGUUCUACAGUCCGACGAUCACUCCGAGUGUGUGCCAUCCAUUUGUUAAGUAACUGGCCUUUAGCAGAUCUGUUUCAAAAACAAAUACAAAAAUGAGAAUGAAAAGUUUGCUUAAGACUAAGUCCAGUGUUGGAAUUCUCGGGUGCCAA	0.41

Sample 2
Target: CCNA2, cyclin fold, Cln2 fusion (human)
Technique: yeast growth competition, sequencing
Medium: yeast
Notes: strong parent motif
Reference: not given
Direction: higher = stronger binding
Starting sequence: PKN2 docking peptide (human); VSAVRKLDFSDTM
Variant	normalised enrichment score
F9R	0.811
D11K	5.34
S10A	5.32
D8E	4.64
V4E	1.27
K6R	5.62
A3Q	0.589
S10I	3.95
R5S	0.78
A3H	4.68
D11I	4.92
A3Y	4.15
R5A	1.88
K6S	4.71
S10M	4.72
T12Q	5.36
T12L	5.48
V4P	3.53
D8V	5.04
D8W	4.37
T12H	5.29
V4K	6.06
V4T	3.96
D11L	5.14
S10K	4.56

Sample 3
Target: Histone acetyltransferase KAT6A, both winged helices, GST fusion (KAT6A, Homo sapiens, UniProt Q92794, residues 1-181)
Technique: protein binding microarray
Form: double-stranded DNA, one strand shown
Medium: in vitro
Concentration: not given
Notes: 8-mer, flanks averaged, mean of 2 arrays, mostly near background
Reference: not given
Direction: higher = stronger binding
Residues (chain): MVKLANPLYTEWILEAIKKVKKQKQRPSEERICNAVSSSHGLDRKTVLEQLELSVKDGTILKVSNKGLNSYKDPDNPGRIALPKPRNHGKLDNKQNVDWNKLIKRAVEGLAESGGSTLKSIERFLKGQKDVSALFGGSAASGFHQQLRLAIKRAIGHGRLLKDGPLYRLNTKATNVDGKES
Strand	E-score
ACCGGCGT	0.255
AGTCATAG	-0.163
CCTGGTAC	-0.196
CTACTTTC	-0.0673
CGAAAGCG	0.206
CCTATTAC	-0.148
AGGAAGCG	0.0975
CCGCATAA	0.151
ACTCTTGG	-0.158
AATATACC	-0.0703
AACCAAAT	-0.126
ATCCTTCA	-0.148
CGGTAGAC	0.225
AACTTGTC	0.021
AATCATTA	-0.0723
CTATTCAA	-0.14
TACAACGA	-0.107
ACCATGGA	-0.172
TACTAGTA	0.00161
ACTCACTG	-0.163
AAGCTCGG	0.0223
CCTAAATC	-0.112

Sample 4
Target: Ras GTPase-activating protein-binding protein 1, RRM domain (G3BP1, Homo sapiens, UniProt Q13283)
UniProt Q13283, sequence (whole entry, looked up): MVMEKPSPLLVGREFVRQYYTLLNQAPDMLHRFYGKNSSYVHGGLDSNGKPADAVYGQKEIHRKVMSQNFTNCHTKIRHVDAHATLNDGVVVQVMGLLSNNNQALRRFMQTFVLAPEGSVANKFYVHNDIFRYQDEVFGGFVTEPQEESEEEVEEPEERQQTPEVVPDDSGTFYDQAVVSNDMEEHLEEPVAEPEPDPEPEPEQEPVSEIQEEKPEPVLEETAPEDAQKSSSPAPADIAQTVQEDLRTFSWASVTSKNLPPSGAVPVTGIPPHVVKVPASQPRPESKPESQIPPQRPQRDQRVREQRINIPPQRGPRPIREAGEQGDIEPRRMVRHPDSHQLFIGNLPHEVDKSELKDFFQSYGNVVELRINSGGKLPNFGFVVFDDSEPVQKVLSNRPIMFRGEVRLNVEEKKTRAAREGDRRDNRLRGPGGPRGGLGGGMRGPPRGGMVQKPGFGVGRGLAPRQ
Technique: RNA Bind-n-Seq
Form: RNA
Medium: in vitro
Concentration: 1 µM
Notes: whole 134-nt RNA, ends assumed
With: 150 mM KCl
Reference: input library
Direction: higher = stronger binding
Strand	log2 enrichment
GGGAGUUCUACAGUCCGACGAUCCUGUGCUACACAUCGUAUGUACCGAAUCGGGGAAAAAGGGGUUUUUGGGGUUUUUUUGGGGAAAGUAUUAUGUUACGCCGUUCGGAUCUGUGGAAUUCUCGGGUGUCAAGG	1.18
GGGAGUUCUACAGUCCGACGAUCAGUCCUGUGCUACACAUCGUAUGUACCGAAUCGGGAAAAAGGGAAAAAGGGAAAGGGAAAGUAUUAUGUUACGCCGUUCGGAUCUGCACUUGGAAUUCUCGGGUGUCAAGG	0.296
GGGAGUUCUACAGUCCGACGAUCUCGUUCCCCCCGCCACGAGAAGAAGAAGAAGGUCCGUAAAUACUGGGACGUGCCACCCCCAGGCUUUGAGCACAUCACCCCAAUGCAGUAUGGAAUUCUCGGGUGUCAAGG	-0.234
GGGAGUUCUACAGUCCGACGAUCGACUCUGAAGAAGAAGCUAUGGAGACUACACCAGCCAAAGGAAAGAAAGCUGCAAAAGUUGUUCCUGUGAAAGCCAAGAACGUGGCUGAGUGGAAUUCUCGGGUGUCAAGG	-0.0751
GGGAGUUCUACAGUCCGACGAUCCCUCAAGUCCUGUGCUACACAUCGUAUGUACCGAAUCGGAGGAGGAAAAAGGAAAGUAUUAUGUUACGCCGUUCGGAUCUGCACUUCCAGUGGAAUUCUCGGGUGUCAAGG	-0.145
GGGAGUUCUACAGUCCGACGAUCUGGCCCUGGUUGCAUGCGGGGAGGAAGAGGUGGCCUCAUGGAUCGUGGUGGUCCCGGUGGAAUGUUCAGAGGUGGCCGUGGUGGAGACAGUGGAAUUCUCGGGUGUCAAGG	0.977
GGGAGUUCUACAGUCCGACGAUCGUCCUGUGCUACACAUCGUAUGUACCGAAUCGGGAAAAAGGGUUUUUGGGAAAAAGGGAAAGUAUUAUGUUACGCCGUUCGGAUCUGCACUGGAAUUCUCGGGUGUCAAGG	0.099
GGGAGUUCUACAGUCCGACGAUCUCCUCAAGUCCUGUGCUACACAUCGUAUGUACCGAAUCGGCGGCGGGGCGGAAAGUAUUAUGUUACGCCGUUCGGAUCUGCACUUCCAGCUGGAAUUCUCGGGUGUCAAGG	-0.233
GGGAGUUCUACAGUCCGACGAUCCCUGUGCUACACAUCGUAUGUACCGAAUCGGGCCCCCCGGGCCCCCCGGGGCCCCCCGGGGAAAGUAUUAUGUUACGCCGUUCGGAUCUGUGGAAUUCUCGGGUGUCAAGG	-0.686
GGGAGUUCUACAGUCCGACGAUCUCAAGUCCUGUGCUACACAUCGUAUGUACCGAAUCGGGAAAGGGAAAGGAAAGGAAAGUAUUAUGUUACGCCGUUCGGAUCUGCACUUCCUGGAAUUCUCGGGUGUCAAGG	-0.256

For quick reference, copied from above (sample 3):
Strand	E-score
AATATACC	-0.0703
AACCAAAT	-0.126
ATCCTTCA	-0.148
CGGTAGAC	0.225
AACTTGTC	0.021
AATCATTA	-0.0723
CTATTCAA	-0.14
TACAACGA	-0.107
